Results gathered from unrelated publications.
Every numbered part comes from another study and shows a few of its results, in no order.

Series 1
Target: Prothrombin, mature alpha-thrombin (F2, Homo sapiens, UniProt P00734)
Technique: aptamer microarray, sandwich
Molecule type: DNA with 2'F-ANA
Medium: in vitro
Tested at: 200 nM
Setting: whole 15-mer aptamer, many near background
Added: Cy3 exosite-II aptamer, 400 nM
Reading: higher = stronger binding
Endpoint: mean fluorescence intensity
Oligonucleotide: GGTTGGTGTGGTTGG
2'F-ANA at 7 12 13 15: 777 a.u.
2'F-ANA at 1 4 6 8 12 13 14: 56.8 a.u.
2'F-ANA at 2 3 4 5 8 11 14 15: 76.6 a.u.
2'F-ANA at 1 2 3 4 7 8 10 13 15: 58.3 a.u.
2'F-ANA at 1 2 3 4 5 6 7 8 11 12 13 14: 49.7 a.u.
2'F-ANA at 5 6 8 9 10 11 12 14 15: 49 a.u.
2'F-ANA at 2 3 4 8 9 10 12 14: 192 a.u.
2'F-ANA at 2 3 5 10 11: 106 a.u.
2'F-ANA at 1 2 7 8 9 10 13: 49.4 a.u.
2'F-ANA at 3 5 6 7 8 10 11 14 15: 51.5 a.u.
2'F-ANA at 1 5 7 9 10 11 12 13: 48.4 a.u.
2'F-ANA at 1 6 8 9 11 14: 56.4 a.u.
2'F-ANA at 3 4 7 10 12 13: 332 a.u.
2'F-ANA at 2 3 5 6 7 8 11 12 13 14 15: 61.1 a.u.
2'F-ANA at 1 5 6 7 8 10 11 12 13 14 15: 48.5 a.u.
2'F-ANA at 1 2 3 6 8 9 11 14: 66.8 a.u.
2'F-ANA at 6 11 14 15: 161 a.u.
2'F-ANA at 4 11 12 13: 378 a.u.
2'F-ANA at 2 3 5 8 9 11 14 15: 51.1 a.u.
2'F-ANA at 2 7 9 12: 793 a.u.
2'F-ANA at 1 3 4 5 11 13 15: 48.4 a.u.
2'F-ANA at 5 6 8 11 12 14: 52.5 a.u.
2'F-ANA at 1 5 6 8 10 14 15: 58.5 a.u.
2'F-ANA at 3 5 6 7 10 12 13 15: 56.5 a.u.

Series 2
Target: RNA binding protein fox-1 homolog 2, RRM domain, GST-SBP tag (RBFOX2, Homo sapiens, UniProt O43251-10, residues 100-194)
Technique: RNA Bind-n-Seq
Molecule type: RNA
Medium: in vitro
Tested at: 365 nM
Setting: natural RNA segment, single round, ends assumed
Reference: no-protein control
Reading: higher = stronger binding
Endpoint: RBNS enrichment (R)
All sequences stand within: GGGAGUUCUACAGUCCGACGAUC … UGGAAUUCUCGGGUGCCAA
Target sequence (chain): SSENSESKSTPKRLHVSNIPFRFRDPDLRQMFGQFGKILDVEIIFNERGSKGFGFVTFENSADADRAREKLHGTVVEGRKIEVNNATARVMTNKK
UUCCCCCGUUGUUUACAUGUUGAAAAGGAAAAUCACAAUCACUUGUAAAUGUGCCAUGCUCUGGUGGUGUGGGCAGUCAAUUAUUGUUAGAAUCUUUACCAAAGAUCUGG: 0.425
CUAGGUUAUACAGAUGCCAUGCUCCACACCACGAGCAGUGUACAAAUCUGGCUGCCCGUUUACUUUCUGAGCAAGCACUGGAGUCCACUCCGACCUUUUUCUUUGAACAU: 0.252
GUCUUUCUUGGGCUUUUAGUUAGCUGAUGAAUGAAUACAUUAGACACUUCUGGGUUUUAGUUGGGAUUUUACAUAGCUUGCAUUUUAGUUCUUUGGUUCUUUGCUGUUUC: 0.928
GACAACAAAGUCCCUGUCCUCAUGGGGCUUAUAUUCUGAUCCAUUUCCUCAUCUAUGAAAUGAAGAUUGUAGUUUUUAUUUCAUAGAGUCAUGAAGAUUGAGUUAAUCUC: 0.226
GAUGCUUGGGAUCUCAAGACUGUCUGCCUUCCUGCCUGCUCCUCAGGCCUGAGAGAGGAGCUGCUCAGUUUACAGAACAGGAGCGGGUUACCAGACUCAUUCUUUUCAUC: 1.98
AUUUGGCCAGAAAAUGCAGCCAUCCUUGUGUGAUUAGGAGGGUUUCAGGGGCCACUGGACUAUUUGCAAGGUGACAGGGACUGGAGCCAUGGCUCAGAGGUGAUUCGGGC: 1.12
AAUGUAAAAUGAUUCUGUAUUAAUGUAAAUAAGAUUAUCUAUUGCAAAAAGAUAUUUCAAACCUAAAUUGUGGUCAUUUCUUCUUUGAAAGAAUUCAGACAGCCUCUGCA: 2.5
UUCCUAAAAGUGAGCCACUAUCAGAUUUGCACAUCAGGAGAAAAGAAAUAGGGUUACGUCCAUUAGGAAAAUCCCAGUUUGCAGGAGUGCAAUCACAUCAAAAAAACAAC: 0.489
UUUCGGUCAGGCCAUCUCCAGCAGCAUGUCUCUGCUGUGUGGAUGGAGGCCAAGGUCAGAAAGAUGCCCCGAGAAGCUCCAGCUUUGCUUUCUGCCCAGCCCAUCUUGCC: 4.81
GGGUGCUCUGUUUCCCCACCGUUCCCAGGUGUACGAGGCAGAGGGCCGGGACAGCUUUCCUCUCAGUCAUUGUUCACCCCACUUGAAAAUUCAGACAAGAAAACUUUGCU: 0.464
GCCAAGACUAUCAAAGGAACGUAUUGUCGCUUCUGGCUCCUUCCCAGGUGGGCUAGCAUCUGUGAGUUUGCCUCGGCUAGCCUUGCUUCCUACAGCCGCCACUGCUCCUC: 0.466
UUGAGCAGAGACAAACCUUUAUUCAUAGUGUCUACAGGACAUAUGAAGAGUGCAAUGGCAAAACAAGAGCAAAAAGCACUUCCUCCCAUGACCUUACAGUAACCAUACUG: 0.31

Series 3
Target: Ras GTPase-activating protein-binding protein 1, full length (G3BP1, Homo sapiens, UniProt Q13283)
Chain of UniProt Q13283 (whole entry, looked up): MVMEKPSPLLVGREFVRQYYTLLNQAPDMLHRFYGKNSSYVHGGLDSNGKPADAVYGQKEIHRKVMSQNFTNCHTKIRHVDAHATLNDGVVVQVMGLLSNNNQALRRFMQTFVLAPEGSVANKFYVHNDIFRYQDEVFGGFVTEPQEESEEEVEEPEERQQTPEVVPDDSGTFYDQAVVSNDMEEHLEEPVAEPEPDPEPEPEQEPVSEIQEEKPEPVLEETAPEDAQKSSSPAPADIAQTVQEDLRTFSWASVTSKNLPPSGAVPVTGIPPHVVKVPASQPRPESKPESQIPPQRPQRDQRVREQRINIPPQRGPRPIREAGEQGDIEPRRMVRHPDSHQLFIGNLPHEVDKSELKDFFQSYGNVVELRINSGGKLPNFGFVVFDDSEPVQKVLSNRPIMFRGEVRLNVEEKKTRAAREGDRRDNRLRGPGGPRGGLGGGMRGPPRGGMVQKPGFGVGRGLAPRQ
Technique: RNA Bind-n-Seq
Molecule type: RNA
Medium: in vitro
Tested at: 200 nM
Setting: whole 134-nt RNA, ends assumed
Added: 150 mM KCl
Reference: input library
Reading: higher = stronger binding
Endpoint: log2 enrichment
All sequences stand within: GGGAGUUCUACAGUCCGACGAUC … UGGAAUUCUCGGGUGUCAAGG
UGGGAGGUGGAUUUUGUUUAUUUUUUUAGCUCAUUUCCAGGGGUGGGAAUUUUUUUUUAAUAUGUGUCAUGAAUAAAGUUGUUUUUGAAC: 0.325
CUCAAGUCCUGUGCUACACAUCGUAUGUACCGAAUCGGUGGAGGAAAAAAAGGAAAGUAUUAUGUUACGCCGUUCGGAUCUGCACUUCCA: -0.481
CAAGUCCUGUGCUACACAUCGUAUGUACCGAAUCGGAAAAAAAGGUGGUUUUUGGAAAGUAUUAUGUUACGCCGUUCGGAUCUGCACUUC: -1.14
AAUGUGUCCUCCCUGUCCAAAUUGGGAAUGACUUAAUGUCAAUUUGUUUGUUGGUUGUUUUAAUAAUACUUCCUUAUGUAGCCAUUAAGA: -0.729
CAAGUCCUGUGCUACACAUCGUAUGUACCGAAUCGGGCCCGGGCCCGGGCCCGGGAAAGUAUUAUGUUACGCCGUUCGGAUCUGCACUUC: -1.04
CAAGUCCUGUGCUACACAUCGUAUGUACCGAAUCGGUUUUUGGAAAAAAAGGAGGAAAGUAUUAUGUUACGCCGUUCGGAUCUGCACUUC: -0.847
UGCGGGACAAAGAAGUGGCCAAUCGAUACUUUACCACUGUCUGUGUGAGAUUACUGCUUGAGAGCAAAGAAAAGAAGAUCAGGGAAUUCA: 0.927
UCCUCAAGUCCUGUGCUACACAUCGUAUGUACCGAAUCGGGUGGGUGGUGGGAAAGUAUUAUGUUACGCCGUUCGGAUCUGCACUUCCAG: 1.14
AAGUCCUGUGCUACACAUCGUAUGUACCGAAUCGGGGAAAAAGGGGUGGGGUGGGGAAAGUAUUAUGUUACGCCGUUCGGAUCUGCACUU: 0.72
CAAGUCCUGUGCUACACAUCGUAUGUACCGAAUCGGGUUUUUGGGUGGGAAAGGGAAAGUAUUAUGUUACGCCGUUCGGAUCUGCACUUC: 0.382
AAGUCCUGUGCUACACAUCGUAUGUACCGAAUCGGGGAAAAAGGGGAGGGGAGGGGAAAGUAUUAUGUUACGCCGUUCGGAUCUGCACUU: 0.441
AGUCCUGUGCUACACAUCGUAUGUACCGAAUCGGUUUUGGGGUUUUGGGUUUUGGGGAAAGUAUUAUGUUACGCCGUUCGGAUCUGCACU: -0.462
UCCUGUGCUACACAUCGUAUGUACCGAAUCGGGGAAAAAGGGAAAAAGGGGAAAAAGGGAAAGUAUUAUGUUACGCCGUUCGGAUCUGCA: -0.0363
CCUGUGCUACACAUCGUAUGUACCGAAUCGGUUUUUUUGGGGUUUUUUUGGUUUUUUUGGGAAAGUAUUAUGUUACGCCGUUCGGAUCUG: -0.987

Series 4
Target: Histone acetyltransferase KAT6A, winged helix 2, GST fusion (KAT6A, Homo sapiens, UniProt Q92794, residues 85-181)
Technique: protein binding microarray
Molecule type: double-stranded DNA, one strand shown
Medium: in vitro
Tested at: not given
Setting: 8-mer, flanks averaged, mean of 2 arrays, mostly near background
Reference: not given
Reading: higher = stronger binding
Endpoint: E-score
Target sequence (chain): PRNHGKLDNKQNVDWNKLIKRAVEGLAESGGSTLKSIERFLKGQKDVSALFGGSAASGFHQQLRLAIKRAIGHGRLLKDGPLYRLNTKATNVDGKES
AGTTGGTC: -0.0721
AGGACACT: -0.0415
AGCTTTTA: -0.018
CAATTATA: -0.0257
AACTTTGC: 0.156
CTTTCTTA: -0.0313
ATTTGGAG: 0.102
ACAATCCG: 0.0651
AATGGGTG: -0.116
CCCAGCCA: 0.0369
GATCGAAC: -0.0352
ATAAGCTA: -0.107
CAGTTACG: -0.126
CCGGAATC: 0.012
ACCCTCTG: 0.0387
GCTACCCC: -0.102
ACCCATTC: 0.0285
GAAACGTC: -0.138
GCTATAGA: -0.143
CAATCTGA: 0.0356
CGGGGACA: 0.0395
TAACCGCA: 0.167
ACAGTTCC: 0.042
ATAACCAC: -0.249

Repeated from above (series 3):
CUCAAGUCCUGUGCUACACAUCGUAUGUACCGAAUCGGUGGAGGAAAAAAAGGAAAGUAUUAUGUUACGCCGUUCGGAUCUGCACUUCCA: -0.481
CAAGUCCUGUGCUACACAUCGUAUGUACCGAAUCGGAAAAAAAGGUGGUUUUUGGAAAGUAUUAUGUUACGCCGUUCGGAUCUGCACUUC: -1.14
AAUGUGUCCUCCCUGUCCAAAUUGGGAAUGACUUAAUGUCAAUUUGUUUGUUGGUUGUUUUAAUAAUACUUCCUUAUGUAGCCAUUAAGA: -0.729
CAAGUCCUGUGCUACACAUCGUAUGUACCGAAUCGGGCCCGGGCCCGGGCCCGGGAAAGUAUUAUGUUACGCCGUUCGGAUCUGCACUUC: -1.04
CAAGUCCUGUGCUACACAUCGUAUGUACCGAAUCGGUUUUUGGAAAAAAAGGAGGAAAGUAUUAUGUUACGCCGUUCGGAUCUGCACUUC: -0.847
UGCGGGACAAAGAAGUGGCCAAUCGAUACUUUACCACUGUCUGUGUGAGAUUACUGCUUGAGAGCAAAGAAAAGAAGAUCAGGGAAUUCA: 0.927
UCCUCAAGUCCUGUGCUACACAUCGUAUGUACCGAAUCGGGUGGGUGGUGGGAAAGUAUUAUGUUACGCCGUUCGGAUCUGCACUUCCAG: 1.14
AAGUCCUGUGCUACACAUCGUAUGUACCGAAUCGGGGAAAAAGGGGUGGGGUGGGGAAAGUAUUAUGUUACGCCGUUCGGAUCUGCACUU: 0.72
CAAGUCCUGUGCUACACAUCGUAUGUACCGAAUCGGGUUUUUGGGUGGGAAAGGGAAAGUAUUAUGUUACGCCGUUCGGAUCUGCACUUC: 0.382
AAGUCCUGUGCUACACAUCGUAUGUACCGAAUCGGGGAAAAAGGGGAGGGGAGGGGAAAGUAUUAUGUUACGCCGUUCGGAUCUGCACUU: 0.441
AGUCCUGUGCUACACAUCGUAUGUACCGAAUCGGUUUUGGGGUUUUGGGUUUUGGGGAAAGUAUUAUGUUACGCCGUUCGGAUCUGCACU: -0.462
